Published values of several laboratories.

Structure (SMILES) | assay | system | conditions | measurement | result
CNC(=O)c1ccc(-c2cnc3ncc(Cc4ccc5ncccc5c4)n3n2)cc1F | phase 1 clinical trial, item: blood alkaline phosphatase increased | dose escalation cohort | oral, dose not given, grade 3 or 4 | adverse event incidence | 5%
O=C1CCc2ccc(OCCCCN3CCN(c4cccc(Cl)c4Cl)CC3)cc2N1 | item: Constipation | genotyped patients, CYP2D6 poor metabolizers | dose not given, long-acting oral or depot | adverse event incidence | 11%
Cc1ccc(Sc2ccccc2N2CCNCC2)c(C)c1 | TEAE dysphoria | healthy adult men | oral, 10 mg single dose, 8 nights, fasted | adverse event incidence | 5.3%
Cc1c(C(=O)O)ccc2c3n(nc12)[C@@H]1[C@H](C3)N(CC2CC2)[C@@]2(C(=O)Nc3cc(Cl)ccc32)[C@H]1c1cccc(Cl)c1F | phase Ia trial, item: Anemia | cancer patients | oral, dose not given, all patients grade ≥3 | adverse event incidence | 18.5%
CC(=O)O[C@H]1C(=O)[C@@]2(C)[C@H]([C@H](OC(=O)c3ccccc3)[C@]3(O)C[C@H](OC(=O)[C@H](O)[C@@H](NC(=O)c4ccccc4)c4ccccc4)C(C)=C1C3(C)C)[C@]1(OC(C)=O)CO[C@@H]1C[C@@H]2O | item: alanine aminotransferase increased | patients with advanced solid tumours | intravenous, dose not given, grade 1 and 2, possibly related to drug | adverse event incidence | 17%
NCCONC(=O)[C@@H]1CC[C@@H]2CN1C(=O)N2OS(=O)(=O)O | item: increased bile acids | healthy Chinese men | intravenous, 1 g, treatment-emergent | adverse event incidence | 12.5%
Cc1c(Cl)c(C)[n+]([O-])c(Cl)c1-c1noc(-c2cc(O)c(O)c([N+](=O)[O-])c2)n1 | item: Presyncope | healthy Chinese subjects | oral, 50 mg, 20 days | adverse drug reaction incidence | 0%
Cc1cc(Nc2ccc(S(F)(F)(F)(F)F)cc2)n2nc(C(C)(F)F)nc2n1 |  | Plasmodium vivax malaria patients | oral, 400 mg | adverse event Pyrexia | 80%

Some of these lines once more:
Structure (SMILES) | assay | system | conditions | measurement | result
Cc1c(Cl)c(C)[n+]([O-])c(Cl)c1-c1noc(-c2cc(O)c(O)c([N+](=O)[O-])c2)n1 | item: Presyncope | healthy Chinese subjects | oral, 50 mg, 20 days | adverse drug reaction incidence | 0%
